Published values from different studies.
Numbered parts are unrelated; each lists some results of a single study.

Set 1
Target: Histone acetyltransferase KAT6A, both winged helices, GST fusion (KAT6A, Homo sapiens, UniProt Q92794, residues 1-181)
Technique: protein binding microarray
Molecule type: double-stranded DNA, one strand shown
Matrix: in vitro
Tested at: not given
Setting: 8-mer, flanks averaged, mean of 2 arrays, mostly near background
Relative to: not given
Reading: higher = stronger binding
Construct (chain): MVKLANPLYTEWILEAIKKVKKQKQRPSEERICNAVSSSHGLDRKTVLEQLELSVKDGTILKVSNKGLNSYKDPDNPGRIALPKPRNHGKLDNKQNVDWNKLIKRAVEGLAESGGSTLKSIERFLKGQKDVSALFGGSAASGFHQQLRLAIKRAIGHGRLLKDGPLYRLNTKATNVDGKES
Oligonucleotide	E-score
ACGCTCTG	0.0505
GGGTCCCA	0.0149
GCGTCAAC	0.256
ACTGTTCG	-0.00162
AGGGTGGA	-0.284
GTGTATCA	-0.126
GAATACCC	0.00844
ACCTAATC	-0.127
ATCTGAGG	-0.138
CACCCATG	0.0142
TAATTGGA	-0.0442
GACGAGCC	-0.0149
AGGGATGC	-0.177
GACCAGGC	-0.138
GATTTGTA	-0.0686
ACCTCTCG	-0.0738
ACTGCAAA	-0.169
AAGCCAAC	0.017
CACTTCGA	-0.108
GCAGCGGC	0.29
CACTCCAA	-0.144
AAGAGCTC	-0.112
CTACTCTC	-0.202
ACCTGACA	-0.109
ACGCCCGT	0.275

Set 2
Target: Ras GTPase-activating protein-binding protein 1, full length (G3BP1, Homo sapiens, UniProt Q13283)
Sequence of UniProt Q13283 (whole entry, looked up): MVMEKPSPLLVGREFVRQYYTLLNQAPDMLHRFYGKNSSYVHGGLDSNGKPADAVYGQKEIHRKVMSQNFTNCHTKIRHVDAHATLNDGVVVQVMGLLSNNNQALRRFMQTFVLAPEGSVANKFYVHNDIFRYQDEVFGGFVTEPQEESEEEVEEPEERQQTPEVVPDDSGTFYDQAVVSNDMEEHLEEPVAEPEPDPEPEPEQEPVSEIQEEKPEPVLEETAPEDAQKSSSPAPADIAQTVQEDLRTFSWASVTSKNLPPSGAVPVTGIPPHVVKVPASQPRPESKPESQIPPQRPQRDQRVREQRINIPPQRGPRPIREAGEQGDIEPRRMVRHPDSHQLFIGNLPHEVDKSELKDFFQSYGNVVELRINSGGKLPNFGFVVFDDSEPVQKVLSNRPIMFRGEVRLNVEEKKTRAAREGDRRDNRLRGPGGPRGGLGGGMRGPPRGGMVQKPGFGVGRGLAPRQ
Technique: RNA Bind-n-Seq
Molecule type: RNA
Matrix: in vitro
Tested at: 200 nM
Setting: whole 134-nt RNA, ends assumed
Together with: 150 mM LiCl
Relative to: input library
Reading: higher = stronger binding
Library: 7-deaza-guanosine replaces G
Constant ends, left off below: GGGAGUUCUACAGUCCGACGAUC … UGGAAUUCUCGGGUGUCAAGG
Oligonucleotide	log2 enrichment
UAACUUUAGAGGAGGAUCUGAUGGAUAUGACAGUGGACGUGGAUUUGGGGAUGGCUAUAAUGGGUAUGGAGGAGGACCUGGAGGUGGCAA	0.164
CUCAAGUCCUGUGCUACACAUCGUAUGUACCGAAUCGGGGCCGGGCCGGCCGGGAAAGUAUUAUGUUACGCCGUUCGGAUCUGCACUUCC	0.715
CAAGUCCUGUGCUACACAUCGUAUGUACCGAAUCGGGUGGGAAAAAAAGGGAGGGAAAGUAUUAUGUUACGCCGUUCGGAUCUGCACUUC	-0.0462
CAAGUCCUGUGCUACACAUCGUAUGUACCGAAUCGGAAAAAAAGGUUUUUGGUGGAAAGUAUUAUGUUACGCCGUUCGGAUCUGCACUUC	-1.33
UGGCCCUGGUGGCAUGCGGGGAGGAAGAGGUGGCCUCAUGGAUCGUGGUGGUCCCGGUGGAAUGUGCAGAGGUGGCCGUGGUGGAGACAG	-0.0606
GCAGGAAGUAAAAACAAAUGGAAAUGCUUCGGAUAGUGGCAGGGGUGGGGGUUGCUAAGGAAAGGGUGGGAUGGGAGUGGUUAAAGAGUU	0.279
GCAGGAAGUAAAAACAAAUGGAAAUGCUUCGGAUAGUGGCAGGGGUGGGGGCUGCUAAGGAAAGGGUGGGAUGGGAGUGGGUAAAGAGUU	0.171
UGGCCCUGGUGGCAUGCGGGGAGGAAGAGGUGGCCUCAUGGAUCGUGGAGGUCCCGGUGGAAUGUUCAGAGGUGGCCGUGGUGGAGACAG	0.654
UGGACCUGGUGGCAUGCGGGGAGGAAGAGGUGGCCUCAUGGAUCGUGGUGGUCCCGGUGGAAUGUUCAGAGGUGGCCGUGGUGGAGACAG	0.305
UCCUGUGCUACACAUCGUAUGUACCGAAUCGGGGUUUUUUGGGUUUUUUGGUUUUUUGGAAAGUAUUAUGUUACGCCGUUCGGAUCUGCA	0.515
CCUCAAGUCCUGUGCUACACAUCGUAUGUACCGAAUCGGGUGGUGGGGUGGGAAAGUAUUAUGUUACGCCGUUCGGAUCUGCACUUCCAG	0.304

Set 3
Target: RNA binding protein fox-1 homolog 2, RRM domain, GST-SBP tag (RBFOX2, Homo sapiens, UniProt O43251-10, residues 100-194)
Technique: RNA Bind-n-Seq
Molecule type: RNA
Matrix: in vitro
Tested at: 365 nM
Setting: natural RNA segment, single round, ends assumed
Relative to: no-protein control
Reading: higher = stronger binding
Constant ends, left off below: GGGAGUUCUACAGUCCGACGAUC … UGGAAUUCUCGGGUGCCAA
Residues (chain): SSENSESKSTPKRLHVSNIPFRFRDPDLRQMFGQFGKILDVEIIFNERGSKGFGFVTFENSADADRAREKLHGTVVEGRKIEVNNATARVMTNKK
Oligonucleotide	RBNS enrichment (R)
CAGACUCAAGGAGACAACCACCUCAACUGGGUCAUGUGGCAUGCCUGUGUAUGUGUGUAACAGAAUUCUGAUUGUUAGACUGUAAUGCUAUUCCUCUAUGGGAGAAAAAA	4.86
UACACUAAUCUGCCUAAAGGUGGUUGUUUCAUAUUUAUAAUGCUAAUUAUCAUACCUACCUACUUUAAAUUUUAGGUAGAAAAUUAUCUGAUUUAAAUACAAACAUAUUU	0.431
AUUAAGCAUAAUAUUUUUUCCAUACUCAGAAUGAAAAUAAACUGGAUAUUACCUUUUUUUUUUUUUUUGUACAAAUUUAAAUACUAGGUCCAGGCUGGAAGAAUUGUAAC	0.445
CCUGCCAAGGUUCUCAAAGCACUUAUCCUCAGGAUAGGGAAAUAGCAGGGACGCCUUGUCCCCAAGACUUCUCCCCAACUUGGCUCCAUUCCUGCAUUCUGCCAUAGGAA	0.951
GGAUUUAGUUUCCUUUUUCCUUUUUUAAAUAUUGGUUUUAAAAAGGGAGCCUGAUGCCCCCAAUUGGUAGUGAGAAUUUGGGGACCUCCCCAACCCCCGACCCCACAAAC	0.513
UGGAGACAGCUUGGUUCCCUUUCCCUAGCUCCCUGGUGGGUGAAUGCCACCUCCUGAGAUCCUCACCUCUUGGAAUUAAAAUUGUUGGUCACUGGGGAAAGCCUGAGUUU	0.899
AAUACUUGGGAUCUUGUUUAGAGAAUCCACUUUCUGGAAGUUCUCAGCAUAAUUAGUGUUGAGAGUGGUUCAGUUGUCUUUAAUGUUUGUCAUGUGGAAAUGGAAGUAGC	0.69
AGCACUUGGCUGGUGGAGAGAUUUUUUUCAUUAUGGAGCUAAUAAAGGGUCCCUACGUUUUACAUUGAUUAAUGAAUUAUCACCCAGACAUGUGCAGAUGAAAUGUCAAU	0.376
CCUCCCAGCAGAAAGCUCUGCUUGGCUUUUGGUGCACUGCUCACCCCCAGCUCCACUGGCCCAAGUCUGAGCCUGGGGCCCUUGCUUUGAGGGGCCAGUCCGAGUUGGAU	0.294
UCUUGCACACAAUUCCUUUGAAAUUACAUUGACAGCCAGGAGACAAAGGAGAGAACUGUUAACUAGCAGAAUGCAUUUUAUAGAGCUCUGGCUAACCGCCUCUUAGCCCA	1.01
GUGAGCAGCCCUGCCAGACUACUGCCAGACUGAGAAACCCAGAAGCUGGUAGUCAUGUGGGCUUGCCUUCUCUGCCAAACGACUGGGAAACCAAAAUGAGCCCACCUUGU	0.353
CAUAGAUGAGGGGUAUGCAUUUCUUAAAAAUCCAUGAACCCUCAAUUGUAUGCUUUCAGUAUUGUGUUAUAUGUUUCUAUGGCAACUUUGAAGUCAGUGGUUUAGAAAUG	0.536

Set 4
Target: RING finger protein unkempt homolog, zinc fingers 1-6, GST-SBP tag (UNK, Homo sapiens, UniProt Q9C0B0, residues 30-357)
Technique: RNA Bind-n-Seq
Molecule type: RNA
Matrix: in vitro
Tested at: not given
Setting: RNA with constant flanks, human and mouse sites, ends assumed
Relative to: input RNA pool
Reading: higher = stronger binding
Constant ends, left off below: GGGAGUUCUACAGUCCGACGAUC … CAACAGAGGAUUGAGCAUCA
Construct (chain): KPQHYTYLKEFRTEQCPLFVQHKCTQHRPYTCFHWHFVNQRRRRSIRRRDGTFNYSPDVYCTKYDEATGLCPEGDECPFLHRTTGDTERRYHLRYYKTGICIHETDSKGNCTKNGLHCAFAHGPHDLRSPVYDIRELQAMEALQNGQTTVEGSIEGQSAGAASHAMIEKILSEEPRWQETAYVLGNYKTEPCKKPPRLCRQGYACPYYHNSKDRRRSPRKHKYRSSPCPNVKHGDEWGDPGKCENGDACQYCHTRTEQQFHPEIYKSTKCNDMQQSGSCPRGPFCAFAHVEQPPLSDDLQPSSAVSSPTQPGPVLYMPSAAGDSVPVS
Oligonucleotide	bound/input enrichment [ratio]
AUAAUAGCAAAACUUCAAGCCAAAGUUCAUGAAUCAAAUAAAUGCCUUGAAAAAACAAAAGAGACAAUUCAAGUACUUCAGGACAAAGUUGCUUUAGGAGCUAAGCCAUAUAAAGAAGAA	0.472
CAACAGGACAUUGAGCAAGUUUGGGAGGAGCUAUUAUCCAUUCCUGAGUUACAGUGUCUUAAUAUUGAAAAUGACAAGCUGGUUGAGACUACCAUGGUUCCAAGUCCAGAAGCCAAACUG	0.2
GGUGCCGGGAGCAAAGAACGUAGGUACAUCCAGUUCUCAUUAUGCAUCAGAAAAAUGAAAAAACAGAAGAAAAUUCUAUGGAAGAAAGGAAUUCACUUAGCCUUUUCUGAGAAAUGGAAU	0.322
CUGAAUGAAGAUCUGGAGGUGAAAAUAGGGGAUUUUGGACUGGCAACCAAAGUCGAAUAUGACGGGGAGAGGAAGAAGACCCUGUGUGGGACUCCUAAUUACAUAGCUCCCGAGGUGCUG	0.295
GUCUUUCAGCUUAAAGACCGUGGUCUGACCGAGUUCCCCUCAGAGUUGCAGAAGCUGACAAGCAAUCUUAGGACCAUCGAUUUAUCCAACAACAAGAUUGACAGCCUACCGCCUCUGAUA	0.0734
AAGUUUUCGUAUCACAGUGUUAACCUGUACUCUCUCCUGCAAACCUACACACCAAAGCUUUAUUUAUAUCAUUCCAGUAUCAAUGCUACACAGUGUUGUCCCGAGCGCCGGGAGGCGUUG	0.361
UACAGCAACAUUUCUCCAGUCCAGAUCCACUGGUACAACACUUCAAACCCUCUACCUUAUGAGCAUAUGAAGCCAAAUUUUCUCAACCCAGCAAAAGAACCUACCUCAGUUUCAGACAGU	0.279
AGAUAUCCUUCGGCUGAAUGUGGGUGGCUGCAUCUACACAGCCCGGCGAGAGUCUUUGUGCCGCUUUAAGGAUUCUAUGCUGGCAUCUAUGUUUAGUGGUCGUUUCCCUCUAAAAACAGA	0.208
ACUGGGAUUACAGGUAUGCACCUAUCAACUUGGGAGUUGAGGGUUUUUUGUUUUGUUUUUUUUUUUUUUAAGGUAAACAACAGUGGGAAAACGGCUCCUUCAUAAAUGAAAACUGUGCAC	0.684
GUGAAAAAUACAGAGCUGGCUGUCUUCCAUGAUGAAACAGAAAUACAAAACCAAACUGACUUACUGAGUCUUAGUGGAAAAACACUUUGUGUGACUGCAGGAUCGGCUCCCUCUCUGAUC	0.136
AUCCACAGUCUGAUGGGCAACUUUGAAAAUGCUGUGGACUACUUCCACACAGCCCUUGGUCUUAGGCGAGAUGAUACAUUUUCUGUUACAAUGCUUGGUCAUUGCAUCGAAAUGUACAUU	0.128

Some of these lines once more (set 2):
Oligonucleotide	log2 enrichment
CAAGUCCUGUGCUACACAUCGUAUGUACCGAAUCGGAAAAAAAGGUUUUUGGUGGAAAGUAUUAUGUUACGCCGUUCGGAUCUGCACUUC	-1.33
UCCUGUGCUACACAUCGUAUGUACCGAAUCGGGGUUUUUUGGGUUUUUUGGUUUUUUGGAAAGUAUUAUGUUACGCCGUUCGGAUCUGCA	0.515
CAAGUCCUGUGCUACACAUCGUAUGUACCGAAUCGGGUGGGAAAAAAAGGGAGGGAAAGUAUUAUGUUACGCCGUUCGGAUCUGCACUUC	-0.0462
CCUCAAGUCCUGUGCUACACAUCGUAUGUACCGAAUCGGGUGGUGGGGUGGGAAAGUAUUAUGUUACGCCGUUCGGAUCUGCACUUCCAG	0.304
UGGCCCUGGUGGCAUGCGGGGAGGAAGAGGUGGCCUCAUGGAUCGUGGUGGUCCCGGUGGAAUGUGCAGAGGUGGCCGUGGUGGAGACAG	-0.0606
CUCAAGUCCUGUGCUACACAUCGUAUGUACCGAAUCGGGGCCGGGCCGGCCGGGAAAGUAUUAUGUUACGCCGUUCGGAUCUGCACUUCC	0.715
UGGCCCUGGUGGCAUGCGGGGAGGAAGAGGUGGCCUCAUGGAUCGUGGAGGUCCCGGUGGAAUGUUCAGAGGUGGCCGUGGUGGAGACAG	0.654
GCAGGAAGUAAAAACAAAUGGAAAUGCUUCGGAUAGUGGCAGGGGUGGGGGUUGCUAAGGAAAGGGUGGGAUGGGAGUGGUUAAAGAGUU	0.279
UAACUUUAGAGGAGGAUCUGAUGGAUAUGACAGUGGACGUGGAUUUGGGGAUGGCUAUAAUGGGUAUGGAGGAGGACCUGGAGGUGGCAA	0.164
UGGACCUGGUGGCAUGCGGGGAGGAAGAGGUGGCCUCAUGGAUCGUGGUGGUCCCGGUGGAAUGUUCAGAGGUGGCCGUGGUGGAGACAG	0.305
